Measured values collected from several papers.
Numbered parts are unrelated; each lists some results of a single study.

Series 1 — method: protein-binding microarray; molecule type: double-stranded DNA, one strand shown; matrix: in vitro; concentration: 250 nM; notes: 60-bp whole probe; together with: salmon DNA 0.4 mg/ml; baseline: random background probes; reading: higher = stronger binding; quantity: log fluorescence; all sequences stand within: GCCTAGCAC … GTCTTGATTCGCTTGACGCTGCTG
Target: Interferon regulatory factor 7, full length, phosphomimetic (IRF7, Homo sapiens, UniProt Q92985, residues 1-503, S101K/S471D/S472D/S475D/S476D/S477D/S483D/S484D/S487D)
Construct (chain): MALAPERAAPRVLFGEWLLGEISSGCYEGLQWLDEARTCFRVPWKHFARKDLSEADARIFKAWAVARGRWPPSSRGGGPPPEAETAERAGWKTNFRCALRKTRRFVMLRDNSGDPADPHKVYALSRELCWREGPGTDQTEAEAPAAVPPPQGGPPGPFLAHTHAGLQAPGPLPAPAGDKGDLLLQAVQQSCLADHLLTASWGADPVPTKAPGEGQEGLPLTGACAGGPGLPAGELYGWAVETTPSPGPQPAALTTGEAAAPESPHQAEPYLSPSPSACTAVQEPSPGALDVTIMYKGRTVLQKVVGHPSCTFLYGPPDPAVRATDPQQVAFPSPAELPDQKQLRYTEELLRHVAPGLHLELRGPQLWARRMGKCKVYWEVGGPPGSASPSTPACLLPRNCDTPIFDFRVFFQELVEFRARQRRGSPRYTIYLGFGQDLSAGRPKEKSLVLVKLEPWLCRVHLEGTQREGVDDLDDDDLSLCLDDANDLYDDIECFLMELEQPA
AGAAACTGTGAGGAGGGGAAGTGCTAG: -0.115 z-score
TTAGAAATGGGGACTGGATTAGTGCTA: -0.181 z-score
TTAGATATCTTTTTCCTAATGTGCTAG: 1.38 z-score
GGTCTTCTGGGCTGTTTGGTTGTGCTA: -0.63 z-score
GACGGTTTCCTTATCCTTACGTGCTAG: 2.93 z-score
GACGATTTCAGTATCGAGCCGTGCTAG: 0.102 z-score
TTTGCTTTCTTTTATGCTCTGTGCTAG: 0.437 z-score
GCTGTCATCGATTTCTTCCCGTGCTAG: -0.0404 z-score
GAAGATTCCAGTTTCGAGACGTGCTAG: 6.62 z-score
GACGGTATCCTTATCCTCACGTGCTAG: 0.347 z-score
TTAGGGCTCGGACTGGGTTAGTGCTAG: -0.185 z-score
GACGGTATCCTACGGCTGACGTGCTAG: -0.511 z-score
GACGATCTCAGTATCTAGACGTGCTAG: -0.379 z-score
TTAGGACTGGTGTTTCGGTTAGTGCTA: 3.77 z-score
ATAGGTCTCCTTTTCCTTTAGTGCTAG: 1.61 z-score
CTCCCTTTCAGTTTTCCTATGTGCTAG: 1.18 z-score
TCATGCTTTCTTTTATGACTGTGCTAG: 0.333 z-score

Series 2 — method: universal PBM; molecule type: double-stranded DNA, one strand shown; matrix: in vitro; concentration: 600 nM; reading: higher = stronger binding; quantity: E-score
Target: Sal-like protein 4, full length isoform A (SALL4, Homo sapiens, UniProt Q9UJQ4, residues 1-1053)
UniProt Q9UJQ4, sequence (whole entry, looked up): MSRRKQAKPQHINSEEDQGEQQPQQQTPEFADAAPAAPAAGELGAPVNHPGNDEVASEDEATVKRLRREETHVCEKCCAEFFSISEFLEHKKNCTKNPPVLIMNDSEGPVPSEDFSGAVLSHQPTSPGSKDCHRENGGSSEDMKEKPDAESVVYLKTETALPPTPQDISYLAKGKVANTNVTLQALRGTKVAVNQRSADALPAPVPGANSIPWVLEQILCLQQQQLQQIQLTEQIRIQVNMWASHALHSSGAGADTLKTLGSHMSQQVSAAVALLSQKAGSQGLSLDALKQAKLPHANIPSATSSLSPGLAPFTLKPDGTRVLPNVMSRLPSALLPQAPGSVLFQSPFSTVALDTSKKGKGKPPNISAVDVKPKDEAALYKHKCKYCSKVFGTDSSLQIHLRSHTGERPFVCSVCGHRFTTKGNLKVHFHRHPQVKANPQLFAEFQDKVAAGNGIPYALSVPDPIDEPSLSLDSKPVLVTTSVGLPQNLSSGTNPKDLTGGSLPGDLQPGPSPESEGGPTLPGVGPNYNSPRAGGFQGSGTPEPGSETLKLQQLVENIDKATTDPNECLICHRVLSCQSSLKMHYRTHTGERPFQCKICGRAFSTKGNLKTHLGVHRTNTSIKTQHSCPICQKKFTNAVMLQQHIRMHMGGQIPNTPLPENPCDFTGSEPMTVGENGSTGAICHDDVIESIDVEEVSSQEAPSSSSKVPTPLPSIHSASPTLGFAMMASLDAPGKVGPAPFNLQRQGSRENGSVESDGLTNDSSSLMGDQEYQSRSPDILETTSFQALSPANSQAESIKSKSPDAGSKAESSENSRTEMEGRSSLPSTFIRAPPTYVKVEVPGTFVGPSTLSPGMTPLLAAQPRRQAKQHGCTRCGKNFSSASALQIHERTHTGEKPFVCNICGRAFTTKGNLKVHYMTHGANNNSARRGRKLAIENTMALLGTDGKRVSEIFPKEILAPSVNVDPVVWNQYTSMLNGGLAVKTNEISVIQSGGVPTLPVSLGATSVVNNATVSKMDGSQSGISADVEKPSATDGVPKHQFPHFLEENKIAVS
Notes: 8-mer, flanks averaged, mean of replicates
GGTAAGAC: -0.126
CATTTGCA: 0.203
AGGATAAG: -0.114
ACATCTTC: 0.0675
CTCGCAGC: -0.107
TACTAGAA: 0.177
CTGTGCCC: -0.236
AAGTGTGC: 0.0646
TCAGAAGA: -0.0361
ACGATCCT: -0.042
GAGATCGC: -0.189
ACGCAGCT: -0.202
CGAAATCA: 0.15
CCATTAAA: 0.127
CTACAACC: 0.0302
AATGTGGC: -0.0904
GAAGCGTA: -0.0751

Series 3 — method: protein-binding microarray; molecule type: double-stranded DNA, one strand shown; matrix: in vitro; concentration: 0.8 µM; notes: whole 60-bp probe, no competitor; reading: higher = stronger binding; quantity: fluorescence intensity; all sequences stand within: … GTCTTGATTCGCTTGACGCTGCTG
Target: Centromere-binding protein 1, full length, N-terminal tag (CBF1, Saccharomyces cerevisiae, UniProt P17106, residues 1-351)
UniProt P17106, sequence (whole entry, looked up): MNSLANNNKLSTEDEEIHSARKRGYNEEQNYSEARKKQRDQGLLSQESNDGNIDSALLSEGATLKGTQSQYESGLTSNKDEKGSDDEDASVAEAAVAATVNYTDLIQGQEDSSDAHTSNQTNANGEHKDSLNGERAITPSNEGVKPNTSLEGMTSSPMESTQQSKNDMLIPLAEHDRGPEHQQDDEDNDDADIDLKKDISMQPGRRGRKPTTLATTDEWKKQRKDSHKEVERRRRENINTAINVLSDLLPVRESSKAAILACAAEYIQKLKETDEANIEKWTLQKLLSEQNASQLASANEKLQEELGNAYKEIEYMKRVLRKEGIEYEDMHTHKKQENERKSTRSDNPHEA
CTAGGTAACATTCAAAACGTGAACATCTTTGTTTTC: 605 a.u.
GAACGTCGTGATGTTCACGCGCTTTGCCCACATTAG: 589 a.u.
GAATCTGACAACGACCACGATTCCCCCGACAATTAG: 489 a.u.
GAACCTCTTACACCGCATGTGATGCTATTACTATAG: 1340 a.u.
TGTACGAAGCTATGTCATGCTCATATAGTAGTTAGG: 573 a.u.
GAATGGAAGACCAAACACGCCATTTCTTAGAAATAG: 504 a.u.
CTATCTATTTACCGGGTGATGGCGGCGCGCCACTTC: 498 a.u.
CCTAACTACTATAGTGATGTTACATAGCTTCGTACA: 500 a.u.
GAAAAAGCAAACAGACACGTTAAGAAGGTAAGATAG: 551 a.u.
CTATAAATAAGCCTCGTCGTGATGAACTTAAATTTC: 541 a.u.
CTATTGTCCTTCAAGTTGGTGATGCGCCGGCGATTC: 504 a.u.
CTAGGGCAATTAAGCATCAGAAGAGGGGAATTTTTC: 496 a.u.

Other studies, line by line
PhoQ, residues 284 288 289 292 302 303 NLMGRA  fold induction (PhoP, residues 12 14 15 18 19 LHATL (Escherichia coli, UniProt P23836); Sort-seq, item: YFP reporter; E. coli; PhoQ-PhoP variant library, together with: 10 µM Mg2+; baseline: high Mg2+ state, higher = stronger signaling): 3.56

Some of these lines once more (series 2):
CTGTGCCC: -0.236
AAGTGTGC: 0.0646
TCAGAAGA: -0.0361
ACGATCCT: -0.042
GAGATCGC: -0.189
ACGCAGCT: -0.202
CGAAATCA: 0.15
CCATTAAA: 0.127
